Published values pooled from the literature.
Numbered parts are unrelated; each lists some results of a single study.

Set 1
Target: Sox, HMG box (Pigoraptor chileana)
Method: Spec-seq
Form: double-stranded DNA, one strand shown
Matrix: in vitro
Concentration: not given
Notes: whole probe, mean of replicates
Baseline: not given
Direction: lower = stronger binding
Constant ends, left off below: GAGTCGTCTCGTCAGCAC … CCGTAGAGCACTCAGGTC
Target sequence (chain): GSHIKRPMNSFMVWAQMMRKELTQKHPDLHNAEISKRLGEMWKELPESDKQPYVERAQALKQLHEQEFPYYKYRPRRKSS
Sequence	relative binding energy [ln ratio]
CTATGTT	-0.519
CTCCGTT	0.723
CATTATA	-1.81
TGTAGTT	-0.367
TTTGGTT	0.353
ATCTGTT	-1.14
GTAGGTT	1.39
GCGTGTT	0.623
CATGCTT	0.701
ACAAGTT	-1.09
CATGGCA	0.515
CATCTAC	0.632
GTATGTT	0.256
CATGATA	0.348
CATGAGA	0.444
CATACAT	-0.187
GGCGGTT	0.832
TCATGTT	-0.235
TCTCGTT	1.06
CTCAGTT	0.191

Set 2
Target: Fragile X messenger ribonucleoprotein 1, C-terminal low-complexity region (Fmr1, Mus musculus, UniProt P35922)
Method: RNA Bind-n-Seq
Form: RNA
Matrix: in vitro
Concentration: 200 nM
Notes: whole 134-nt RNA, ends assumed
Together with: 150 mM LiCl
Baseline: input library
Direction: higher = stronger binding
All molecules: 7-deaza-guanosine replaces G
Sequence	log2 enrichment
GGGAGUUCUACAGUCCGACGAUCCAAGUCCUGUGCUACACAUCGUAUGUACCGAAUCGGGCCCGGGCCCGGCCCGGGGAAAGUAUUAUGUUACGCCGUUCGGAUCUGCACUUCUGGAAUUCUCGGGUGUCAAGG	-1.93
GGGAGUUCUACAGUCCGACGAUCGCAGGAAGUAAAAACAAAUGGAAAUGCUUCGGAUAGUGGCAGGGGUGGAGGUUGCUAAGGAAAGGGUGGGAUGGGAGUGGGUAAAGAGUUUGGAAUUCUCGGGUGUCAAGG	1.34
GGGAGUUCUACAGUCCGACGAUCAGUCCUGUGCUACACAUCGUAUGUACCGAAUCGGGGAAAAGGGAAAAGGGAAAAGGGAAAGUAUUAUGUUACGCCGUUCGGAUCUGCACUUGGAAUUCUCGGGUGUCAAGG	-0.72
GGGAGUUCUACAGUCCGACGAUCCCUCAAGUCCUGUGCUACACAUCGUAUGUACCGAAUCGGGCGGCGGGCGGGGAAAGUAUUAUGUUACGCCGUUCGGAUCUGCACUUCCAGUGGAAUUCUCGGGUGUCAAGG	0.462
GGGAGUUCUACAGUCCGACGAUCUGGCCCUGGUGGCACGCGGGGAGGAAGAGGUGGCCUCAUGGAUCGUGGUGGUCCCGGUGGAAUGUUCAGAGGUGGCCGUGGUGGAGACAGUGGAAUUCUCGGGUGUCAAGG	0.191
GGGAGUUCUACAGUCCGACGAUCCCUCAAGUCCUGUGCUACACAUCGUAUGUACCGAAUCGGGGAGGGAGGGAGGAAAGUAUUAUGUUACGCCGUUCGGAUCUGCACUUCCAGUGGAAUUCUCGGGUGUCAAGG	-1
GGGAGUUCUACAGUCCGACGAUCUGAAAAUUCUCGACUGGCUGCUGAGGUUUACAAAGACAUGCCGGAAACCAGCUUUACUCGAACCAUUUCUAAUCCUGAGGUGGUUAUGAAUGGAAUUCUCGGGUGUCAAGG	-3.03
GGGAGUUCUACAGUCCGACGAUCAGUCCUGUGCUACACAUCGUAUGUACCGAAUCGGGCCCCCGGGCCCCCGGGCCCCCGGAAAGUAUUAUGUUACGCCGUUCGGAUCUGCACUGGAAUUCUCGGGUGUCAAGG	-2.82
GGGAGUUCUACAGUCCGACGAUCCCUGUGCUACACAUCGUAUGUACCGAAUCGGGAAAAAAGGAAAAAAGGGGAAAAAAGGGGAAAGUAUUAUGUUACGCCGUUCGGAUCUGCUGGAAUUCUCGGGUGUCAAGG	-0.0255
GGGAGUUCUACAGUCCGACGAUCAGUCCUGUGCUACACAUCGUAUGUACCGAAUCGGGGAAAAAGGGGUUUGGGGAGGGGAAAGUAUUAUGUUACGCCGUUCGGAUCUGCACUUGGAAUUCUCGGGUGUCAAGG	-0.899
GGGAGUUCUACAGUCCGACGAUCACUGAUGAGAGCCUGAGGAGCCAUUUUGAGCAAUGGGGAACGCUCACGGACUGUGUGGUAAGAUUUGGAAGGGACAAAGCAGUAAAACAGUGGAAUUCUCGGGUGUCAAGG	0.634

Set 3
Target: Centromere-binding protein 1, full length, N-terminal tag (CBF1, Saccharomyces cerevisiae, UniProt P17106, residues 1-351)
Sequence of UniProt P17106 (whole entry, looked up): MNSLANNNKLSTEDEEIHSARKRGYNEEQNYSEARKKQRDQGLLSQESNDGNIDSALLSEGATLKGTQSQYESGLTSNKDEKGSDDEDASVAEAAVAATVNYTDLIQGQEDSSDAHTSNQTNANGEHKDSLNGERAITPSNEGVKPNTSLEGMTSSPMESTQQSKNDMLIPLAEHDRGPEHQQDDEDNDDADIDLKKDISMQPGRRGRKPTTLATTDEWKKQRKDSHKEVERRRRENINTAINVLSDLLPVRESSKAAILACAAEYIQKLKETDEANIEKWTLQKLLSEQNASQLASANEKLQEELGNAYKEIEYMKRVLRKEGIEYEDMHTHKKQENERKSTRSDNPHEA
Method: protein-binding microarray
Form: double-stranded DNA, one strand shown
Matrix: in vitro
Concentration: 0.8 µM
Notes: whole 60-bp probe, no competitor
Direction: higher = stronger binding
Sequence	fluorescence intensity
CTACTGAAAAAAATTCACATGTGTGTTGTACTTTTCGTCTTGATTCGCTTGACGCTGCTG	654 a.u.
TGTACGAAGCTATTTCGTGTGCTTATAGTAGTTAGGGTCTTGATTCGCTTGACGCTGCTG	487 a.u.
CCTAACTACTATATCCACATGGTATAGCTTCGTACAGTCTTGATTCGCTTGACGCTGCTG	635 a.u.
CTAGGGCTAAAGTCTCATGAAACAGCGTCACTATTCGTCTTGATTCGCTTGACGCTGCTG	506 a.u.
GAATTTTGGCGAGAACACGCCATGAAATGTCTTTAGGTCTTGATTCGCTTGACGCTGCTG	547 a.u.
TGTACGAAGCTATAACACATGCTTATAGTAGTTAGGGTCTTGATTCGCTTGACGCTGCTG	601 a.u.
CTAAAATGTTGAAGCATCACCAGTAGGATGACCTTCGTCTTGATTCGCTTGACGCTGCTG	498 a.u.
GAATTCCGTATTTTTCACGCCATTAGAAACATTTAGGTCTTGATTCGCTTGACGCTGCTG	595 a.u.
GAATATTCATGCTTGCACGTTATACCTGGCCGGTAGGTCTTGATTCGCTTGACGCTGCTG	597 a.u.
CTATGTGTGTTGGCTCTCACCTGCGCTTGCTGCTTCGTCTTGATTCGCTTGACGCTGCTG	521 a.u.
CTAATATATGGCTATCACATGGCACAGGTATTATTCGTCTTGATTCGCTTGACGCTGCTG	2010 a.u.
GAAAAAAATGCTCACCTGACCTTATTCACCCAATAGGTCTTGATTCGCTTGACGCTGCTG	5200 a.u.
CTAAATAGTATAAAACACATCAGATAAACAAAATTCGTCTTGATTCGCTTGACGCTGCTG	551 a.u.
GAATGATCATGAACTCGTGAGGTTAAATTTCGCTAGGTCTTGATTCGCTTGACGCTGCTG	650 a.u.
GAAGACTAGAATGGGCACGTGATCATAAAATTATAGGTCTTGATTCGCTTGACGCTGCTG	27500 a.u.
GAAGTCAGGGAAATGCACGAGAAAAGCACTTATTAGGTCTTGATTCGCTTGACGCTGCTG	548 a.u.
TGTACGAAGCTATGATGCGTGCTTATAGTAGTTAGGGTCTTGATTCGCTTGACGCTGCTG	531 a.u.
CTATTGTATTTCAACCACGTTCCATATATGTGGTTCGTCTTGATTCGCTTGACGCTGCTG	782 a.u.
GAAGTGCTTCGTAGTGGTGTGAGGATGTTATAATAGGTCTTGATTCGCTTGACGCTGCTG	519 a.u.
GAAAAAAAACGTGATAAGCACGTGGATAATTGTTAGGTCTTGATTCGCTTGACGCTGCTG	6530 a.u.
CTACTTCATTGTAATGAGGTGACTCTATTTAATTTCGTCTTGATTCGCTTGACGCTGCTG	504 a.u.
CTAGCTTATCCCCGCCATCACTTCCCCCCGCCCTTCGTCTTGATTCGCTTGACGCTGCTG	511 a.u.
CTAAGTAAATCGTATCACGACTGTAAATGATGGTTCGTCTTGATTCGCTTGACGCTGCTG	650 a.u.
CTATATCGAATCTCTCACGATATATATATATATTTCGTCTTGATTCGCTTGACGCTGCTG	1420 a.u.

Mixed results
Molecule	target	assay	system	conditions	how to read	endpoint	result
PhoQ, residues 284 288 289 292 302 303 TTCLQL	PhoP, residues 12 14 15 18 19 IQFRS (Escherichia coli, UniProt P23836)	Sort-seq, refers to: YFP reporter	E. coli	PhoQ-PhoP variant library, together with: 10 µM Mg2+	baseline: high Mg2+ state, higher = stronger signaling	fold induction	6.5

Excerpt of the above (set 1):
Sequence	relative binding energy [ln ratio]
CATTATA	-1.81
CATACAT	-0.187
TCATGTT	-0.235
ACAAGTT	-1.09
CATGATA	0.348
